Experimental data from different studies.
Lines come from different studies, so protocols differ. “And” joins repeats or separate records; there may be more than shown.
Nos2: Nitric oxide synthase, inducible (Nos2, Mus musculus, UniProt P29477)
Tmem97: Sigma intracellular receptor 2 (Tmem97, Rattus norvegicus, UniProt Q5U3Y7)

For `O=C(c1ccc(SCCF)cc1)C1CCN(C2Cc3ccccc3CC2O)CC1` (single isomer, unassigned; (-)), the selectivity ratio was ~13.6 fold and ~13 fold (SIGMAR1 (Cavia porcellus, UniProt Q60492); together with: (+)-[3H]pentazocine; reference: SIGMAR1 Ki over VAChT Ki).
The selectivity ratio of `Cc1cc(N)nc(C[C@H]2CNC[C@H]2OCCC/C=C/c2cccc(F)c2)c1` is reported as 9 (Nos2; enzyme activity, inhibitor; reference: Ki Nos2 over Ki nNOS).
With `Cc1cc(N)nc(CC2CNCC2OCCNCC(F)(F)c2ccc(F)cc2)c1` (stereo not drawn) the selectivity ratio was 1200 (Nos2; hemoglobin capture; reference: Ki iNOS over Ki nNOS).
`Cc1cc(N)nc(C[C@@H]2CNC[C@@H]2OCCCCCc2cccc(F)c2)c1` has a selectivity ratio of 91 (Nos2; enzyme activity, inhibitor; reference: Ki Nos2 over Ki nNOS).
`Cc1cc(O)c2c(c1)C(=O)c1cc(O)c(O)c(O)c1C2=O` gave a selectivity ratio of 0.85 (MAOA (Homo sapiens, UniProt P21397); reference: IC50 MAO-B over MAO-A).
For `COc1ccc(CC[C@H]2OC(=O)[C@@H]3CCCCN3C(=O)C(=O)C(C)(C)COC(=O)/C=C/CCN(C)C(=O)[C@H](CC(C)C)N(C)C(=O)[C@@H]3CCCN3C(=O)[C@H](Cc3ccccc3)N(C)C(=O)[C@H](c3ccccc3)NC(=O)CCC(=O)Nc3cccc2c3)cc1OC`, the selectivity ratio was about 40 fold (FKBP5 (Homo sapiens, UniProt Q13451); enzyme activity, inhibitor; reference: FKBP12 potency over FKBP5 potency).
`Oc1ccc(CCC(O)CC(O)CCc2ccc(O)cc2)cc1` (stereo not drawn) gave a selectivity ratio of about 2 (Maob (Rattus norvegicus, UniProt P19643); rat enzyme; together with: benzylamine; reference: MAO-B over MAO-A).
`C/C(=N\OCCCN1CCOCC1)c1ccc(C(F)(F)F)cc1` has a selectivity ratio of 366 fold (Tmem97; binding, [3H]-DTG radioligand binding; rat brain homogenate; reference: Ki over sigma-1 Ki).
The selectivity ratio of `Cc1cc(N)nc(C[C@@H]2CNC[C@@H]2OCCCCCc2cccc(N)n2)c1` is reported as 619 (Nos2; enzyme activity, inhibitor; reference: Ki Nos2 over Ki nNOS).
`COc1ccc(CCCN[C@@H]2CCC[C@H]2CN[C@@H]2CCC[C@H]2CNCCCCN[C@@H]2CCC[C@H]2CN)cc1` gave a selectivity ratio of 3.8 (KDM1B (Homo sapiens, UniProt Q8NB78); peroxidase-coupled; reference: Ki for KDM1B over Ki for LSD1).
With `COC(=O)c1cc2cc3c(cc2oc1=O)N(CC(=O)NC(Cc1ccc(C)cc1)C(=O)NCC=CS(=O)(=O)c1ccccc1)CCC3` (stereo not drawn) the selectivity ratio was 2.9 (Cathepsin S (CTSS, Homo sapiens, UniProt P25774); enzyme activity, irreversible inhibitor; reference: rhodesain kinact/Ki over cathepsin S kinact/Ki).
With `C/C(=N\OCCN1CCCC1)c1ccc(C(F)(F)F)cc1` the selectivity ratio was 948 fold (Tmem97; binding, [3H]-DTG radioligand binding; rat brain homogenate; reference: Ki over sigma-1 Ki).

A few entries again:
With `COC(=O)c1cc2cc3c(cc2oc1=O)N(CC(=O)NC(Cc1ccc(C)cc1)C(=O)NCC=CS(=O)(=O)c1ccccc1)CCC3` (stereo not drawn) the selectivity ratio was 2.9 (Cathepsin S (CTSS, Homo sapiens, UniProt P25774); enzyme activity, irreversible inhibitor; reference: rhodesain kinact/Ki over cathepsin S kinact/Ki).
With `C/C(=N\OCCN1CCCC1)c1ccc(C(F)(F)F)cc1` the selectivity ratio was 948 fold (Tmem97; binding, [3H]-DTG radioligand binding; rat brain homogenate; reference: Ki over sigma-1 Ki).
